Measurements from different studies.
Each line is one published result; not all experiments were run side by side. ± marks the error that the study gave.

| Substance | target | assay | test system | conditions | scale | quantity | result |
| --- | --- | --- | --- | --- | --- | --- | --- |
| U-69593 | opioid receptors, mouse | G protein activation, agonist | C57BL/6 wild-type mouse striatal membranes | – | relative to: vehicle | Emax | 30% |
| CCCc1nc2c(NP(=O)(OCC)OCC)nc3ccccc3c2s1 | human TLR7 or TLR8 | reporter gene, agonist | – | concentration not given, receptor not specified | – | agonist activity | inactive |
| Cc1c(N2CC[C@@H](CN)C2)c(F)cc2c(=O)n(N)c(=O)n(C3CC3)c12 | Staphylococcus aureus topoisomerase IV GrlA S81Y | DNA cleavage complex stability | – | 20 µM | relative to: wild type | decrease in cleavage complex half-life | ≤ 30% |
| CC[C@H](C)[C@@H]1NC(=O)[C@H](CCC(=O)O)NC(=O)[C@@H]2CCCN2C(=O)[C@H](Cc2c[nH]cn2)NC(=O)[C@H](CC(=O)O)NC(=O)[C@H](Cc2ccc(O)cc2)NC(=O)[C@H](CC(N)=O)NC(=O)[C@@H]2CSSC[C@@H]3NC(=O)CNC(=O)CNC(=O)CNC(=O)[C@H](C)NC(=O)[C@H](C)NC(=O)CNC(=O)CNC(=O)[C@H](CSSC[C@H](NC3=O)C(=O)N[C@@H](CO)C(=O)N[C@@H](CC(=O)O)C(=O)N3CCC[C@H]3C(=O)N[C@@H](CCCNC(=N)N)C(=O)N2)NC1=O | Cav2.1 human α1A-2 | Ba2+ current | – | 200 nM, without GABA-B receptor | – | inhibition | 0% |
| CC(=O)N1C[C@@H](COP(=O)(N(C)C)N2C[C@@H](COP(=O)(N(C)C)N3C[C@@H](COP(=O)(N(C)C)N4C[C@@H](COP(=O)(N(C)C)N5C[C@@H](COP(=O)(N(C)C)N6C[C@@H](COP(=O)(N(C)C)N7C[C@@H](COP(=O)(N(C)C)N8C[C@@H](COP(=O)(N(C)C)N9C[C@@H](COP(=O)(N(C)C)N%10C[C@@H](COP(=O)(N(C)C)N%11C[C@@H](COP(=O)(N(C)C)N%12C[C@@H](COP(=O)(N(C)C)N%13C[C@@H](COP(=O)(N(C)C)N%14C[C@@H](COP(=O)(N(C)C)N%15C[C@@H](COP(=O)(N(C)C)N%16C[C@@H](COP(=O)(N(C)C)N%17C[C@@H](COP(=O)(N(C)C)N%18C[C@@H](COP(=O)(N(C)C)N%19C[C@@H](COP(=O)(N(C)C)N%20C[C@@H](COP(=O)(N(C)C)N%21C[C@@H](COP(=O)(N(C)C)N%22C[C@@H](COP(=O)(N(C)C)N%23C[C@@H](COP(=O)(N(C)C)N%24CCN(C(=O)CCCN%25C(=O)CC(SC[C@H](NC(=O)[C@H](CCCNC(=N)N)NC(=O)[C@H](CCCNC(=N)N)NC(=O)[C@H](CCCNC(=N)N)NC(=O)[C@H](CCCNC(=N)N)NC(=O)[C@H](Cc%26ccccc%26)NC(=O)[C@H](Cc%26ccccc%26)NC(=O)[C@H](CCCNC(=N)N)NC(=O)[C@H](CCCNC(=N)N)NC(=O)[C@H](CCCNC(=N)N)NC(=O)[C@H](CCCNC(=N)N)NC(=O)[C@@H](N)CCCNC(=N)N)C(N)=O)C%25=O)CC%24)O[C@@H](n%24cnc%25c(=O)[nH]c(N)nc%25%24)C%23)O[C@@H](n%23cc(C)c(=O)[nH]c%23=O)C%22)O[C@@H](n%22ccc(N)nc%22=O)C%21)O[C@@H](n%21cnc%22c(N)ncnc%22%21)C%20)O[C@@H](n%20cc(C)c(=O)[nH]c%20=O)C%19)O[C@@H](n%19ccc(N)nc%19=O)C%18)O[C@@H](n%18cc(C)c(=O)[nH]c%18=O)C%17)O[C@@H](n%17cc(C)c(=O)[nH]c%17=O)C%16)O[C@@H](n%16cnc%17c(=O)[nH]c(N)nc%17%16)C%15)O[C@@H](n%15ccc(N)nc%15=O)C%14)O[C@@H](n%14cnc%15c(=O)[nH]c(N)nc%15%14)C%13)O[C@@H](n%13ccc(N)nc%13=O)C%12)O[C@@H](n%12ccc(N)nc%12=O)C%11)O[C@@H](n%11cnc%12c(N)ncnc%12%11)C%10)O[C@@H](n%10cc(C)c(=O)[nH]c%10=O)C9)O[C@@H](n9cc(C)c(=O)[nH]c9=O)C8)O[C@@H](n8cc(C)c(=O)[nH]c8=O)C7)O[C@@H](n7cc(C)c(=O)[nH]c7=O)C6)O[C@@H](n6cc(C)c(=O)[nH]c6=O)C5)O[C@@H](n5cnc6c(=O)[nH]c(N)nc65)C4)O[C@@H](n4cc(C)c(=O)[nH]c4=O)C3)O[C@@H](n3cnc4c(=O)[nH]c(N)nc43)C2)O[C@@H](n2cnc3c(=O)[nH]c(N)nc32)C1 (stereo partly shown) | ORF50 leader-luciferase RNA | luciferase activity, in vitro translation | Kaposi's sarcoma-associated herpesvirus | 300 nM | relative to: mock-treated | inhibition | 98% |
| U-69593 | human kappa opioid receptor | G protein over β-arrestin2, operational model | – | unit not given | relative to: reference agonist | ΔΔlog(τ/KA) | 0 |
| 13,19-didesmethyl spirolide C | nicotinic acetylcholine receptor (Torpedo marmorata) | binding | – | together with: biotin-α-bungarotoxin | – | Hill slope | 1.33 ± 0.23 |
| pralidoxime iodide | butyrylcholinesterase (pig), DFP-inhibited | reactivator | – | – | relative to: kr over kr acetylcholinesterase (human) | reactivation rate ratio | 50 fold |
| c1ccc(Nc2cccc3ccccc23)cc1 | Manis javanica OBP3 Y130A | binding, fluorescence binding | – | together with: 1-NPN probe | – | Kd | 420 ± 160 nM |
| CC(C)[C@H]1CC[C@@H](N2CCC(n3c(CO)cc4ccccc43)CC2)CC1 | α1 adrenergic receptor | radioligand binding | – | 10 µM | – | inhibition | 60% |
| O=C(O)C(=O)Nc1ccc(C#Cc2ccc(C(F)(F)F)cc2Cl)cc1 | mPTPB (Mycobacterium tuberculosis) | inhibitor, western blot, measured: phospho-AKT | RAW264.7 expressing HA-mPTPB | 5 to 40 nM, 2 h, together with: IFN-γ | – | AKT phosphorylation | decreased |
| CCC(C)C1NC(=O)/C(=C(/C)O)C1=O (stereo not shown) | plasma membrane H+-ATPase (Spinacia oleracea) | ATP hydrolysis | purified leaf plasma membrane | 5 µM, 15 min, leaves pretreated in vivo, unit not given | relative to: untreated control | Km | 0.48 |
| methylarsonous diiodide | pyruvate dehydrogenase complex, porcine | enzyme activity, inhibitor | – | 1 h, 1 h preincubation | – | IC50 | 92.1 nM |
| nociceptin | nociceptin receptor (human) | BRET | – | – | relative to: compound as unbiased standard, G protein over β-arrestin 2 | bias factor | 0 |
| diisopropyl fluorophosphate | bovine lens protease | enzyme activity, inhibitor | lens protease-rich fraction | 1 mM, 30 min preincubation, 37 °C, together with: MCA-62 to 70 substrate | – | inhibition | ~22% |
| C[C@H]1COc2c(N3CCN(C)CC3)c(F)cc3c(=O)c(C(=O)O)cn1c23 | Staphylococcus aureus topoisomerase IV GrlA S81F | – | – | – | – | maximal DNA cleavage | 29.3% |

For quick reference, copied from above:
| Substance | target | assay | test system | conditions | scale | quantity | result |
| --- | --- | --- | --- | --- | --- | --- | --- |
| 13,19-didesmethyl spirolide C | nicotinic acetylcholine receptor (Torpedo marmorata) | binding | – | together with: biotin-α-bungarotoxin | – | Hill slope | 1.33 ± 0.23 |
| C[C@H]1COc2c(N3CCN(C)CC3)c(F)cc3c(=O)c(C(=O)O)cn1c23 | Staphylococcus aureus topoisomerase IV GrlA S81F | – | – | – | – | maximal DNA cleavage | 29.3% |
